Published values of several laboratories.
Lines come from different studies, so protocols differ.
Organism: Influenza A virus

| Compound | test | test system | conditions | how to read | endpoint | result |
| --- | --- | --- | --- | --- | --- | --- |
| CCN(CC)CC#CCO[C@H]1CC[C@H](O)[C@@H]2[C@H]1[C@H]1C[C@@H]3[C@@]4(C)CCC[C@@](C)(C(=O)OC)[C@@H]4CC[C@@]23C=C1C(C)C |  | MDCK, A/Puerto Rico/8/34 (H1N1) |  | relative to: CC50 over IC50 | selectivity index | 4.31 |
| CCN(CC)C12C3CCC4C3C3C(CCC31)C42 | viral replication | A/Ishikawa/7/82 (H3N2) |  |  | EC50 | > 100 µM |
| CC1=CCC[C@H](C)[C@@]12CC[C@@H](C(C)(C)O)C2 |  | MDCK, A/Shenzhen/203/2001 (H3N2) |  | relative to: CC50 over IC50 | selectivity index | 3.5 |
| CC(=N)N1CC23C4C5CC5C5C4C4C2C2CC2C4C53C1 (stereo not shown) | viral replication | MDCK, H3N2 A/HK/7/87 |  |  | EC50 | > 100 µM |
| CCN(CC)CC#CCOC(=O)[C@]1(C)CCC[C@]2(C)[C@H]3C[C@H]4C(C(C)C)=C[C@]3(CC[C@H]21)[C@@H]1C(=O)CCC(=O)[C@@H]14 |  | MDCK, A/Puerto Rico/8/34 (H1N1) |  | relative to: CC50 over IC50 | selectivity index | 5.45 |
| CCN(CC)CC12C3CCC4C3C3C(CCC31)C42 | viral replication | MDCK, H3N2 A/HK/7/87 |  |  | EC50 | > 100 µM |
| CCN(CC)CC#CCOC(=O)[C@]1(C)CCC[C@@]2(C)[C@H]1CC(C=O)=C1C=C(C(C)C)CC[C@@H]12 |  | MDCK, A/Puerto Rico/8/34 (H1N1) |  | relative to: CC50 over IC50 | selectivity index | 9.89 |
| CC12CCC(CC1=NCCO)C2(C)C (stereo not shown) | viral replication | MDCK, H3N2 |  |  | IC50 | 10.3 µM |
| CC(C)C1=CC2=CC[C@@H]3[C@](C)(CCC[C@@]3(C)C(=O)OCC#CCN3CCOCC3)[C@H]2CC1 |  | MDCK, A/Puerto Rico/8/34 (H1N1) |  | relative to: CC50 over IC50 | selectivity index | 0.24 |
| N=C(N)N1CC23C4CCC5C4C4C2CCC4C53C1 | viral replication | MDCK, A/PR/8/34 (H1N1) |  |  | EC50 | 1.3 µM |
| COc1cccc(CNC(=O)c2cc(C(C)(C)C)nn2C)c1OC | viral replication | MDCK, A/WSN/33 |  |  | EC50 | < 1 µM |
| CC(C)=CCC[C@H](C)c1ccc(C)cc1 |  | MDCK, A/PR/8/34 (H1N1) |  | relative to: CC50 over IC50 | selectivity index | 7.5 |
| CCC1(CC)C2CC3CC(C2)CC1(NC)C3 | viral replication | A/Ishikawa/7/82 (H3N2) |  |  | EC50 | > 100 µM |
| CC(C)C1=C[C@@]23CC[C@@H]4[C@](C)(CCC[C@@]4(C)C(=O)OCC#CCN4CCOCC4)[C@H]2C[C@@H]1[C@H]1C(=O)CCC(=O)[C@H]13 |  | MDCK, A/Puerto Rico/8/34 (H1N1) |  | relative to: CC50 over IC50 | selectivity index | 1.65 |
| CC(=O)OC[C@H]1O[C@@H](Oc2cc(C)c3c(c2)C(=O)c2cccc(O)c2C3=O)[C@H](OC(C)=O)[C@@H](OC(C)=O)[C@@H]1OC(C)=O | viral production, time-of-addition |  | 50 µM |  | inhibition | 60% |
| C=CC(=O)Nc1cccc2c1cc(C)n2-c1nc2c(c(NCc3ccccc3)n1)CCCC2 |  | MDCK, A/WS/33 (H1N1) | 0.1 µM, 24 h, infected cells |  | viability | 0% |

Excerpt of the above:
| Compound | test | test system | conditions | how to read | endpoint | result |
| --- | --- | --- | --- | --- | --- | --- |
| CCN(CC)CC12C3CCC4C3C3C(CCC31)C42 | viral replication | MDCK, H3N2 A/HK/7/87 |  |  | EC50 | > 100 µM |
| CC(C)C1=C[C@@]23CC[C@@H]4[C@](C)(CCC[C@@]4(C)C(=O)OCC#CCN4CCOCC4)[C@H]2C[C@@H]1[C@H]1C(=O)CCC(=O)[C@H]13 |  | MDCK, A/Puerto Rico/8/34 (H1N1) |  | relative to: CC50 over IC50 | selectivity index | 1.65 |
| CC1=CCC[C@H](C)[C@@]12CC[C@@H](C(C)(C)O)C2 |  | MDCK, A/Shenzhen/203/2001 (H3N2) |  | relative to: CC50 over IC50 | selectivity index | 3.5 |
